Results collected from several papers.
Every numbered part comes from another study and shows a few of its results, in no order.
Sequence of UniProt P49459 (whole entry, looked up): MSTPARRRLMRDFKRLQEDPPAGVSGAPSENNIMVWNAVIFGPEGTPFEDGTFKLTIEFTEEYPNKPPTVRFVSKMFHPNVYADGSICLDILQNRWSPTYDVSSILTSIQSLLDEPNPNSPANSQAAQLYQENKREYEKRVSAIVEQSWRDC

Sample 1
Target: Hepatocyte nuclear factor 3-beta, forkhead domain (FOXA2, Homo sapiens, UniProt Q9Y261, residues 142-269)
Method: protein-binding microarray
Molecule type: hairpin DNA
Medium: in vitro
Tested at: not given
Setting: whole hairpin DNA, median over replicate spots
Reference: not given
Reading: higher = stronger binding
Target sequence (chain): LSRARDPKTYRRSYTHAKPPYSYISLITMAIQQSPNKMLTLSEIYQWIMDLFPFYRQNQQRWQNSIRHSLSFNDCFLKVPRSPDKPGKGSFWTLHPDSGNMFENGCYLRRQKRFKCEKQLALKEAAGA
`GAGGCCGTGTAAACAACGCCTCCTGGCGTTGTTTACACGGCCTCACACTC` gave a median fluorescence of 5140 a.u.
With `GAGGCCATGCCGACAACGCCTCCTGGCGTTGTCGGCATGGCCTCACACTC (5mC at 33)` the median fluorescence was 3330 a.u.
`GAGGCCATGTCACCAACGCCTCCTGGCGTTGGTGACATGGCCTCACACTC` gave a median fluorescence of 3180 a.u.
The median fluorescence of `GAGGCCATGTAAACAAAGCCTCCTGGCTTTGTTTACATGGCCTCACACTC` is reported as 5460 a.u.
`GAGGCCATGTAACCGACGCCTCCTGGCGTCGGTTACATGGCCTCACACTC (5mC at 14 30)` gave a median fluorescence of 3240 a.u.
`GAGGCCCTGTAAACAACGCCTCCTGGCGTTGTTTACAGGGCCTCACACTC (5mC at 7)` has a median fluorescence of 3730 a.u.
`GAGGCCATGCAGACAACGCCTCCTGGCGTTGTCTGCATGGCCTCACACTC` has a median fluorescence of 3420 a.u.
`GAGGCCATGTAAAAAACGCCTCCTGGCGTTTTTTACATGGCCTCACACTC` gave a median fluorescence of 2900 a.u.

Sample 2
Target: Prothrombin, mature alpha-thrombin (F2, Homo sapiens, UniProt P00734)
Method: aptamer microarray, sandwich
Molecule type: DNA with 2'F-ANA
Medium: in vitro
Tested at: 200 nM
Setting: whole 15-mer aptamer, many near background
Together with: Cy3 exosite-II aptamer, 400 nM
Reading: higher = stronger binding
Sequence: GGTTGGTGTGGTTGG
Under “mean fluorescence intensity”, `2'F-ANA at 1 2 3 7 11 12 15` is recorded as 374 a.u.
`2'F-ANA at 1 3 6 7 8 10 11 15` — result for “mean fluorescence intensity”: 78.5 a.u.
`2'F-ANA at 1 2 4 5 6 7 8 9 10 11 12 13 14` — result for “mean fluorescence intensity”: 50.9 a.u.
`2'F-ANA at 3 4 5 6 7 9 10 15` — result for “mean fluorescence intensity”: 53.8 a.u.
For `2'F-ANA at 1 3 7 8 9 11 12 13`, “mean fluorescence intensity” read 435 a.u.
`2'F-ANA at 1 4 8 10 11 12 13 14 15` — result for “mean fluorescence intensity”: 49.9 a.u.
For `2'F-ANA at 2 7 10 11 13 14`, “mean fluorescence intensity” read 82 a.u.
For `2'F-ANA at 2 3 4 5 6 7 8 9 11 13 15`, “mean fluorescence intensity” read 59.7 a.u.

Sample 3
Target: RING finger protein unkempt homolog, zinc fingers 1-6, GST-SBP tag (UNK, Homo sapiens, UniProt Q9C0B0, residues 30-357)
Sequence of UniProt Q9C0B0 (30-357, looked up): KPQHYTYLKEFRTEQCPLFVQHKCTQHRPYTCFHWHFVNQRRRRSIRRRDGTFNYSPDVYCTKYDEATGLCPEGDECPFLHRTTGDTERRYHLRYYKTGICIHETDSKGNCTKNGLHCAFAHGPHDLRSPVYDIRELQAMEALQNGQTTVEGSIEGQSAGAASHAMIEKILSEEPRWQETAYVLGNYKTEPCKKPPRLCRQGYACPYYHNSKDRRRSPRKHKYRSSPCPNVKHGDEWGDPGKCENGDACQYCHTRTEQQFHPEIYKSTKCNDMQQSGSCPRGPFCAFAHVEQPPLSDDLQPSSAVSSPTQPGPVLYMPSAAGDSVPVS
Method: RNA Bind-n-Seq
Molecule type: RNA
Medium: in vitro
Tested at: not given
Setting: RNA with constant flanks, human and mouse sites, ends assumed
Reference: input RNA pool
Reading: higher = stronger binding
Shared flanks, not repeated: GGGAGUUCUACAGUCCGACGAUC … CAACAGAGGAUUGAGCAUCA
With `AAUCUUUUAAAAUCAACAUGGGGUAGGGAAAGAGAAAUCAUAGGUACCCAGGCAAAUCCCUGAGCCAGUAAGGCCCUGUAGAGUAAUAAUGAAUUGUUACCUUAAAAUCUUAUCACUAAC` the bound/input enrichment was 0.797 ratio.
`GCCUCCCUGGGUCUAGAGAAGUUGGUAAGCCCUCCAGCCUCAGCCGCUGCUUCCAGCCCUAGCUCUUCUCCAUCUCCACAGCCCGUUUCAGAGCUUGACUUGUCCUCAGAGCCACAGCAG` has a bound/input enrichment of 0.366 ratio.
The bound/input enrichment of `CUGUGGUGACUCAGAUAAAGGAUUUGUCGUUAUUAAUCAAAAGGGGAUUGACCCCUUUUCCUUAGAUGCCCUUGCGAAAGAAGGGAUCGUAGCUCUGCGCAGAGCCAAGAGGAGAAACAU` is reported as 0.303 ratio.
For `GAAAAACCACAUAAGAGCCAAACCCUGGCCUUUCCAUUUUAAAUAUUUUUAUUCAGUCCCUUCUCUGGUUCUUUUCCUCUUACUCUGAUUUUCCUUUUAAGACAAAAACAAAAAUUUGAG`, the bound/input enrichment was 1.47 ratio.
`AGCAUUUGUCUCGAUAUUCUAAGAUCACAGUGGUCGCCUGCUUUAACAAUUUCUAAAGUUCUUUUAUCCAUUUGUUCACUGCUAUGUGAUCCAAACCCAGAUGACCCCCUAGUGCCAGAG` has a bound/input enrichment of 0.286 ratio.
For `GUACCUGACUUUGGGCAACAGGUAUCAAAAGCCUCAAGAGAACAGUUUCUCUGAUAAGAUUAUUUUAUACCAGGGGUCAGAAGACUCCACUCACGGGCCAAGUUUGGCCCAGUCAUUUUU`, the bound/input enrichment was 0.522 ratio.
`UGUAACUUUUGUAAAUACACAUAGCAUGUAAUGGUAUCUUAAAGUGUGUUUCUAUGUGACAAUUUUGUACAAAUUUGUUAUUUUCCAUUUUUAUUUCAAAAUAUACAUUCAAACUUAAAA` has a bound/input enrichment of 0.523 ratio.
For `AUUUGGCCCAUCUGAGACCAAUGAAUCCCCUGCAGUUGUGCUAGAACCUCCUGUAGUAUCAAUGGAGGUAUCAGAGCCACACAUCUUAGAAACUCUGAAGCCAGCUACAAAAACUGCAGA`, the bound/input enrichment was 0.509 ratio.

Further values, each from its own experiment
`KETIKKTTKPCPRCHVPVEKNGGCMHMKCPQPQCRLEWCWNCGCEWNRVCMG (PRKN RING domain (UniProt O60260))` — result for “lacZ reporter activity”: 0 (UBE2A UBC core domain (UniProt P49459); yeast two-hybrid; yeast; mostly zero background; reference: not given, higher = stronger interaction).

For quick reference, copied from above (sample 3):
`UGUAACUUUUGUAAAUACACAUAGCAUGUAAUGGUAUCUUAAAGUGUGUUUCUAUGUGACAAUUUUGUACAAAUUUGUUAUUUUCCAUUUUUAUUUCAAAAUAUACAUUCAAACUUAAAA` has a bound/input enrichment of 0.523 ratio.
With `AAUCUUUUAAAAUCAACAUGGGGUAGGGAAAGAGAAAUCAUAGGUACCCAGGCAAAUCCCUGAGCCAGUAAGGCCCUGUAGAGUAAUAAUGAAUUGUUACCUUAAAAUCUUAUCACUAAC` the bound/input enrichment was 0.797 ratio.
